Values quoted from earlier work, collected from citations in different studies.
Protocols differ between the studies behind these lines. Several values in a cell are separate wells, animals, samples, runs or records. ± gives the spread as reported.
Chain of UniProt P56658 (whole entry, looked up): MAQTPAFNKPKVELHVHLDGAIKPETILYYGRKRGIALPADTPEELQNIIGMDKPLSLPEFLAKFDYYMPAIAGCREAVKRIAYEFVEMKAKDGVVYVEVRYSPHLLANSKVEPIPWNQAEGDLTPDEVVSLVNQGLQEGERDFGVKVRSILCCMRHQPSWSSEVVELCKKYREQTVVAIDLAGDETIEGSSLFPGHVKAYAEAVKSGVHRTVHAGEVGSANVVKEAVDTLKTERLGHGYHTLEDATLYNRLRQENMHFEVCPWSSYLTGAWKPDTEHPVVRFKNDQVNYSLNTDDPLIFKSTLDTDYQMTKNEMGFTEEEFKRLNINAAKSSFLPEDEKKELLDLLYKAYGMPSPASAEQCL

SMILES = COc1ccc(Nc2nc(Nc3ccc(OCC[18F])cc3)ncc2Br)cc1; system = S180 tumour-bearing mice, muscle; setting = intravenous, 120 min; measurement = tissue uptake; result = 1.59 ± 0.27 %ID/g
SMILES = c1ccc2c(c1)CCNC2c1c[nH]c2ncccc12 (stereo not drawn); target or system = COLO 320 ABCB1-resistant colon; test = cytotoxicity; measurement = IC50; result = 53500 nM
SMILES = Clc1cc2nc(c1)CNCCNCCNC2.[Cu+2]; test = cyclic voltammetry; system = DMF; setting = scan rate 100 mV/s; scale = relative to: Fc/Fc+; measurement = cathodic peak potential; result = -979 mV
SMILES = CC1(N(CC(=O)O)CC(=O)O)CN(CC(=O)O)CCN(CC(=O)O)C1; test = pH-potentiometry, measured: logK3H; system = 0.15 M NaCl; setting = 25 °C; measurement = protonation constant (log); result = 3.77
SMILES = Oc1c(C(c2ccccc2)c2c[nH]c3ccccc23)cc(Cl)c2cccnc12 (stereo not drawn); target or system = COLO 320 ABCB1-overexpressing; test = cell viability; measurement = IC50; result = 2720 nM
SMILES = O=C(O)CN1CCOCCN(CC(=O)O)Cc2cccc(n2)C1; target or system = protonation constant; setting = 0.15 M NaCl; measurement = log KH3; result = 2.13
SMILES = Oc1c(Cc2c[nH]c3ncccc23)cc(Cl)c2cccnc12; target or system = COLO 320 ABCB1-overexpressing; test = cell viability; measurement = IC50; result = 22500 nM
SMILES = C/C(N)=N/C(=N\S(=O)(=O)c1ccc(C(F)(F)F)cc1)N1C[C@H](c2ccccc2)C(c2ccc(Cl)cc2)=N1; system = Sprague-Dawley rat; setting = 3 mg/kg; measurement = F; result = 81%
SMILES = CCOC(=O)C(c1cc(Cl)c2cccnc2c1O)c1c[nH]c2ncccc12 (stereo not drawn); target or system = COLO 320 ABCB1-overexpressing; test = cell viability; measurement = IC50; result = 5060 nM
SMILES = NCCN1CCN(CC(=O)O)Cc2cccc(n2)CN(CC(=O)O)CC1; target or system = protonation constant; setting = 0.15 M NaCl; measurement = log KH1; result = 11.3
SMILES = Cc1ccc2c(c1)nc(CCN1C(=O)c3cccc4cccc(c34)C1=O)n2-c1ccncc1; system = Sprague-Dawley rat; setting = oral, 10 mg/kg; measurement = oral bioavailability; result = 2.5%
SMILES = O=C(O)CN(CC(=O)O)[C@H]1CCCC[C@@H]1N(CC(=O)O)Cc1ccccn1; target or system = protonation constant; setting = 0.15 M NaCl; measurement = log KH2; result = 6.39
SMILES = Nc1ncnc2c([C@@H]3O[C@H](CO)[C@@H](O)[C@H]3O)snc12; target or system = Adenosine deaminase (ADA, Bos taurus, UniProt P56658); test = substrate, fluorescence; measurement = deamination half-life; result = 33.3 ± 0.7 s
SMILES = O=C(O)CN1CCNCCN(CC(=O)O)Cc2cccc(n2)C1; target or system = protonation constant; setting = 0.15 M NaCl; measurement = log KH1; result = 12.2
SMILES = CCOC(=O)C(c1cc(Cl)c2cccnc2c1O)N1CCOCC1 (stereo not drawn); target or system = COLO 205; test = cytotoxicity; measurement = IC50; result = 2020 nM and 2060 nM and 2070 nM

A few entries again:
SMILES = Nc1ncnc2c([C@@H]3O[C@H](CO)[C@@H](O)[C@H]3O)snc12; target or system = Adenosine deaminase (ADA, Bos taurus, UniProt P56658); test = substrate, fluorescence; measurement = deamination half-life; result = 33.3 ± 0.7 s
SMILES = O=C(O)CN1CCNCCN(CC(=O)O)Cc2cccc(n2)C1; target or system = protonation constant; setting = 0.15 M NaCl; measurement = log KH1; result = 12.2
